# Results pooled from the literature.
# Protocols differ between the studies behind these lines. ± marks the error that the study gave.
# Cell line: HepG2
Compound,assay,setting,how to read,measurement,value
COc1cccc(/C=N\NC(=O)[C@]2(C)C3CC[C@]4(C)C(C(=O)C=C5C6[C@@H](C)[C@H](C)CC[C@]6(C)CC[C@]54C)[C@@]3(C)CC[C@H]2OC(C)=O)c1 (some centres unmarked),"cell growth or viability, MTT","25 µM, 24 h",,viability,93%
CC(C)=CCc1c(O)cc2c(c1O)C(=O)OC2,"cell growth or viability, CCK-8","30 µM, 24 h",,viability,91.1%
O=C(Nc1nc2ccccc2s1)C1CCN(S(=O)(=O)c2ccc(F)c(Cl)c2)CC1,MTT,"up to 30 µM, 24 h",,cytotoxicity,not toxic
COc1cccc2c(-c3ccc(O)c4c3CCN=C4)ccc(OC(C)C)c12,cytotoxicity,,,EC50,> 50 µM
C[C@@]1(CO)CC[C@]2(C(=O)O)CC[C@]3(C)C(=CCC4[C@@]5(C)C[C@@H](O)[C@H](O)[C@@](C)(CO)C5CC[C@]43C)C2C1 (some centres unmarked),"cell growth or viability, MTT",72 h,,IC50,> 100 µM
CC1=CC(OC(=O)c2ccccc2)C2(COC(=O)c3ccccc3)CCC(=C(C)C)C2C(O)CC2(C)OC2CC1 (centres unmarked),"cell growth or viability, CCK-8","40 µM, 24 h",,viability,76.6%
COc1ccc(C(=O)/C=C(\O)C(F)(F)C(F)(F)F)cn1,cell viability,"24 h, 10% FBS",,EC50,~10 µM
COc1ccc(/C=N\NC(=O)[C@]2(C)C3CC[C@]4(C)C(C(=O)C=C5C6[C@@H](C)[C@H](C)CC[C@]6(C)CC[C@]54C)[C@@]3(C)CC[C@H]2OC(C)=O)cc1OC (some centres unmarked),"cell growth or viability, MTT","25 µM, 24 h",,viability,94%
CC(C)=C1CC[C@]2(COC(=O)c3ccccc3)[C@@H](OC(=O)c3ccccc3)/C=C(\C)CC[C@@H]3O[C@@]3(C)C[C@@H](OC(=O)c3cccnc3)[C@@H]12,"cell growth or viability, CCK-8","10 µM, 24 h",,viability,97.2%
COC1=CC(c2ccc[nH]2)=NC1=CNC1CCCC1,"cell growth or viability, resazurin",,,IC50,30.5 µM
CC(=O)O[C@@H]1CC[C@@]2(C)C(CC[C@]3(C)C2C(=O)C=C2C4[C@@H](C)[C@H](C)CC[C@]4(C)CC[C@]23C)[C@@]1(C)C(=O)OCc1cn(CC(=O)OC2CC(C)CCC2C(C)C)nn1 (some centres unmarked),"cell growth or viability, MTT","25 µM, 24 h",,viability,85%
COC1C=COC2(C)Oc3c(C)c(O)c4c(c3C2=O)C2=NC3(CCN(CC(C)C)CC3)NC2=C(NC(=O)C(C)=CC=CC(C)C(O)C(C)C(O)C(C)C(OC(=O)Nc2cscn2)C1C)C4=O (centres unmarked),,48 h,relative to: CC50 over MIC,selectivity index,823
CCCCCCCCCCCCCCCC(=O)NCC(=O)N(CC(=O)N(CCCCN)CC(=O)N(CCN)CC(=O)N(CC(N)=O)C1CCCCC1)C1CCCCC1,"cytotoxicity, MTT",72 h,,TD50,85 ± 16 µg/mL
CC(C)=CCc1c(O)cc(CO)cc1O,"cell growth or viability, CCK-8","20 µM, 24 h",,viability,99.8%
O=C(OCc1cccc(O)c1O)c1ccc(O)c(CO)c1,,"20 µM, 48 h",,cytotoxicity,not toxic
CC(C)[C@@H]1CC[C@@H](C)C[C@H]1O,"cell growth or viability, MTT","25 µM, 24 h",,viability,96%
COC1C=COC2(C)Oc3c(C)c(O)c4c(c3C2=O)C2=NC3(CCN(CC(C)C)CC3)NC2=C(NC(=O)C(C)=CC=CC(C)C(O)C(C)C(O)C(C)C(OC(=O)c2cncnc2)C1C)C4=O (centres unmarked),,48 h,relative to: CC50 over MIC,selectivity index,4560
CCCCCCCCCCCCCNCC(=O)N(CC(=O)N(CCCCN)CC(=O)N(CCN)CC(=O)N(CC(N)=O)Cc1cccs1)Cc1cccs1,"cytotoxicity, MTT",72 h,,TD50,154 ± 47 µg/mL
CCC1=CC(=CNC23CC4CC(CC(C4)C2)C3)N=C1c1ccc[nH]1,"cell growth or viability, resazurin",,,IC50,15.2 µM
O=[N+]([O-])c1ccc2c(c1)S(=O)(=O)C=C2,"cell growth or viability, WST-1",24 h,,IC50,10.8 µM
COC1=CC(c2ccc[nH]2)=NC1=Cc1[nH]c(Cc2ccc(Cl)cc2)cc1Cc1ccc(Cl)cc1,"cell growth or viability, resazurin",,,IC50,> 250 µM
CCCCCCCCCCCCCNCC(=O)N(CC(=O)N(CCCCN)CC(=O)N(CCN)CC(=O)N(CC(N)=O)c1cccc2ccccc12)c1cccc2ccccc12,"cytotoxicity, MTT",72 h,,TD50,118 ± 19 µg/mL
COc1cc(C=O)ccc1OC(=O)COC(=O)[C@]1(C)C2CC[C@]3(C)C(C(=O)C=C4C5[C@@H](C)[C@H](C)CC[C@]5(C)CC[C@]43C)[C@@]2(C)CC[C@H]1OC(C)=O (some centres unmarked),"cell growth or viability, MTT","25 µM, 24 h",,viability,86%
COC1C=COC2(C)Oc3c(C)c(O)c4c(c3C2=O)C2=NC3(CCN(CC(C)C)CC3)NC2=C(NC(=O)C(C)=CC=CC(C)C(O)C(C)C(O)C(C)C(OC(=O)Nc2cccnn2)C1C)C4=O (centres unmarked),,48 h,relative to: CC50 over MIC,selectivity index,1740
CCC1=C(C)C(c2ccc[nH]2)=NC1=CNC1CCCCCC1,"cell growth or viability, resazurin",,,IC50,15.8 µM
COC(=O)C1C(c2nc3cc(OC)ccc3[nH]2)=Cc2cc3c(cc2C1c1cc(OC)c(OC)c(OC)c1)OCO3 (centres unmarked),"cell growth or viability, resazurin",48 h,,CC50,51.2 µM
CCC1=CC(c2ccc[nH]2)=NC1=CNC12CC3CC(CC(C3)C1)C2,"cell growth or viability, resazurin",,,IC50,6.1 µM
COc1cc(O)c(-c2cc(-c3cc(-c4c(O)cc5c(c4OC)[C@H](C)N[C@H](C)C5)c4cc(C)cc(OC)c4c3O)c(O)c3c(OC)cc(C)cc23)c2c1[C@H](C)N[C@H](C)C2,cytotoxicity,,,EC50,13.1 ± 3.5 µM
CCC1=C(C)C(c2ccc[nH]2)=NC1=CNC1CCCCCCC1,"cell growth or viability, resazurin",,,IC50,23.9 µM
COc1ccc(/C=N\NC(=O)[C@]2(C)C3CC[C@]4(C)C(C(=O)C=C5C6[C@@H](C)[C@H](C)CC[C@]6(C)CC[C@]54C)[C@@]3(C)CC[C@H]2OC(C)=O)cc1 (some centres unmarked),"cell growth or viability, MTT","25 µM, 24 h",,viability,89%
CCOC(=O)c1cn(-c2nc(C(F)(F)F)n[nH]2)nn1,MTT,up to 500 µM,,cytotoxicity,not toxic
COc1cccc2c(-c3ccc(O)c4c3CCNC4)ccc(O)c12,cytotoxicity,,,EC50,32.3 ± 5.6 µM
O=C(CCl)Sc1nnc(-c2n[nH]c(=O)c3ccccc23)o1,"qRT-PCR, measured: p53","IC50, 8 h",relative to: untreated,mRNA level,1.63 ± 0.18 fold
O=C(CN1C(C(=O)c2ccccc2)=C(O)c2ccccc2S1(=O)=O)Nc1ccccc1Br,MTT,concentration not given,relative to: DMSO,cytotoxicity,not toxic
CC(=O)O[C@@H]1CC[C@@]2(C)C(CC[C@]3(C)C2C(=O)C=C2C4[C@@H](C)[C@H](C)CC[C@]4(C)CC[C@]23C)[C@@]1(C)C(=O)OCc1cn(CC(=O)Oc2cc(C)ccc2C(C)C)nn1 (some centres unmarked),"cell growth or viability, MTT","25 µM, 24 h",,viability,93%
"COc1cc(C)c(-c2ccc(O)c3c2C[C@@H](C)N[C@@H]3C)c2cccc(O)c12 (single isomer, unassigned)",cytotoxicity,,,EC50,> 50 µM
COc1ccc(/C=N\NC(=O)[C@]2(C)C3CC[C@]4(C)C(C(=O)C=C5C6[C@@H](C)[C@H](C)CC[C@]6(C)CC[C@]54C)[C@@]3(C)CC[C@H]2OC(C)=O)cc1O (some centres unmarked),"cell growth or viability, MTT","25 µM, 24 h",,viability,90%
CCc1c(C)[nH]c(C=NC23CC4CC(CC(C4)C2)C3)c1C,"cell growth or viability, resazurin",,,IC50,29.9 µM
COc1cccc2c(-c3ccc(O)c4c3C[C@@H](C)N[C@@H]4C)c(C)cc(O)c12,cytotoxicity,,,EC50,25 ± 11.6 µM
CC(C)C1=CC(=CNC23CC4CC(CC(C4)C2)C3)N=C1c1ccc[nH]1,"cell growth or viability, resazurin",,,IC50,18.5 µM
C[C@@H]1O[C@@H](O[C@H]2[C@H](O[C@H]3CC[C@@]4(C)C(CC[C@]5(C)C4CC=C4C6CC(C)(C)CC[C@]6(C(=O)O[C@@H]6O[C@H](CO)[C@@H](O)[C@H](O)[C@H]6O)CC[C@]45C)[C@]3(C)CO)OC[C@H](O)[C@@H]2O)[C@H](O)[C@H](O[C@@H]2OC[C@@H](O)[C@H](O)[C@H]2O)[C@H]1O (some centres unmarked),"cell growth or viability, CCK-8","30 µM, 24 h",,viability,87.4%

# Excerpt of the above:
Compound,assay,setting,how to read,measurement,value
C[C@@]1(CO)CC[C@]2(C(=O)O)CC[C@]3(C)C(=CCC4[C@@]5(C)C[C@@H](O)[C@H](O)[C@@](C)(CO)C5CC[C@]43C)C2C1 (some centres unmarked),"cell growth or viability, MTT",72 h,,IC50,> 100 µM
CC1=CC(OC(=O)c2ccccc2)C2(COC(=O)c3ccccc3)CCC(=C(C)C)C2C(O)CC2(C)OC2CC1 (centres unmarked),"cell growth or viability, CCK-8","40 µM, 24 h",,viability,76.6%
COc1ccc(C(=O)/C=C(\O)C(F)(F)C(F)(F)F)cn1,cell viability,"24 h, 10% FBS",,EC50,~10 µM
